Measurements from different studies.
Each numbered part is a random draw from the data of one study; scales do not carry over between parts.
Chain of UniProt Q99759 (whole entry, looked up): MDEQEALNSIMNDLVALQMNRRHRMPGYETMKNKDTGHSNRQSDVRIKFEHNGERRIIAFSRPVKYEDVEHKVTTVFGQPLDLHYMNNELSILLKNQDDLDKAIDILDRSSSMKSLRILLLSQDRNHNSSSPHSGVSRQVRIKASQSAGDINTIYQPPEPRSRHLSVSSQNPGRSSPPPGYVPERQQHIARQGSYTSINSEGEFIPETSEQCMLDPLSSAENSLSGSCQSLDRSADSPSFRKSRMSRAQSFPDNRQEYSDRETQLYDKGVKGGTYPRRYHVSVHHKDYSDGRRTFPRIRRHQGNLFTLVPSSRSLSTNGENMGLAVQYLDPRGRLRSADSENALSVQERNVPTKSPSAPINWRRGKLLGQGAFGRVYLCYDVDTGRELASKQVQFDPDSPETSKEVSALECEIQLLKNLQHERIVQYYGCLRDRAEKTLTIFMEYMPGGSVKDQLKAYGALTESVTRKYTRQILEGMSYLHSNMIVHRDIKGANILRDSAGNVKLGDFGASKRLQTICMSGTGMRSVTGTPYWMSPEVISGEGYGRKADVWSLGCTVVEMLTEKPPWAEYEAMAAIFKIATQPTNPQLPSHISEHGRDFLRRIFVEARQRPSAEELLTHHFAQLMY
Chain of UniProt P36897 (whole entry, looked up): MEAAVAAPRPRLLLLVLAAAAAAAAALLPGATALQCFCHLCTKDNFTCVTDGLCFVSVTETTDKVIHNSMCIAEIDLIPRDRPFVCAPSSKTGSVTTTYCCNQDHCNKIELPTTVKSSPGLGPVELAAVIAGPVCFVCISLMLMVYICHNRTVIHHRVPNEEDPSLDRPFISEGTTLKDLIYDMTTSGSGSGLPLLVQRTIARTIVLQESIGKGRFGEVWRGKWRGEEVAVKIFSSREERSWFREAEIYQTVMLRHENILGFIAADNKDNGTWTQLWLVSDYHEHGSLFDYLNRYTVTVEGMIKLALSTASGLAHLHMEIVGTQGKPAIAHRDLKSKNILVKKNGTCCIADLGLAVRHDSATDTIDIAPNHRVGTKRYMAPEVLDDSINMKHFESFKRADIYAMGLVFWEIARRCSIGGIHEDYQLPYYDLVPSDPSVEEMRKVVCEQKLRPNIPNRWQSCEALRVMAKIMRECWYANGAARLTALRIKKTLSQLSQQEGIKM
Chain of UniProt P57058 (whole entry, looked up): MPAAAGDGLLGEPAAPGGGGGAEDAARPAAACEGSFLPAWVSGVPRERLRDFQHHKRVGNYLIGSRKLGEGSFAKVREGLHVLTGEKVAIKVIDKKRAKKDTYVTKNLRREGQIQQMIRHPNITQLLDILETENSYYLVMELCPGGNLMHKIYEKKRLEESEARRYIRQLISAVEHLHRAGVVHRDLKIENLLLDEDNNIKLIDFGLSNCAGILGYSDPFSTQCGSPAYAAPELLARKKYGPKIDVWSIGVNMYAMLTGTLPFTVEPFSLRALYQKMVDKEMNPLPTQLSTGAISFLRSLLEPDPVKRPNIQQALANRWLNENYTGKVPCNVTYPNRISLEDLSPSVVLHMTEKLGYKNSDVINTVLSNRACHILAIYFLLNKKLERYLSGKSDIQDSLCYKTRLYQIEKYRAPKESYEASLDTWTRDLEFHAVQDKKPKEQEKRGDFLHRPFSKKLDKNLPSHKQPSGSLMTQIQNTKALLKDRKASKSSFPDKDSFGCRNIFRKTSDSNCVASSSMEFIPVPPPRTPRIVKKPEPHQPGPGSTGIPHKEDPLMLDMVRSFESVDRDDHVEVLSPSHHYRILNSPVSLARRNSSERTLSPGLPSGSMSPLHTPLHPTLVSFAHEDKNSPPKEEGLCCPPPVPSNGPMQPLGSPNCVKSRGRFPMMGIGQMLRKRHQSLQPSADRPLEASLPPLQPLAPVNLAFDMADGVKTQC
Chain of UniProt Q04771 (whole entry, looked up): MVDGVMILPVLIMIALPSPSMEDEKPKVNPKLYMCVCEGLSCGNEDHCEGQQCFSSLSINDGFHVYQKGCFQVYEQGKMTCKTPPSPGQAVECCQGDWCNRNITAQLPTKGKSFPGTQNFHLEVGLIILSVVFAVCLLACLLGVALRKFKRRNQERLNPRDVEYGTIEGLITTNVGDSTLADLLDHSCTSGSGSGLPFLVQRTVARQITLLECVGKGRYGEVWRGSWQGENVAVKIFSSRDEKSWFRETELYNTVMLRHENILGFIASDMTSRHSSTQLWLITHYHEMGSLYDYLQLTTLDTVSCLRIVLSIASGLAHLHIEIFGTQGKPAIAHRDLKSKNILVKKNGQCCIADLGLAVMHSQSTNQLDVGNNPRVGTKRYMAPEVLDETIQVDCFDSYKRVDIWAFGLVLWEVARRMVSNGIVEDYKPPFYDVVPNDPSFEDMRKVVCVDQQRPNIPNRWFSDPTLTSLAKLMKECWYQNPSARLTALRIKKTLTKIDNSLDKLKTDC
Chain of UniProt O96017 (whole entry, looked up): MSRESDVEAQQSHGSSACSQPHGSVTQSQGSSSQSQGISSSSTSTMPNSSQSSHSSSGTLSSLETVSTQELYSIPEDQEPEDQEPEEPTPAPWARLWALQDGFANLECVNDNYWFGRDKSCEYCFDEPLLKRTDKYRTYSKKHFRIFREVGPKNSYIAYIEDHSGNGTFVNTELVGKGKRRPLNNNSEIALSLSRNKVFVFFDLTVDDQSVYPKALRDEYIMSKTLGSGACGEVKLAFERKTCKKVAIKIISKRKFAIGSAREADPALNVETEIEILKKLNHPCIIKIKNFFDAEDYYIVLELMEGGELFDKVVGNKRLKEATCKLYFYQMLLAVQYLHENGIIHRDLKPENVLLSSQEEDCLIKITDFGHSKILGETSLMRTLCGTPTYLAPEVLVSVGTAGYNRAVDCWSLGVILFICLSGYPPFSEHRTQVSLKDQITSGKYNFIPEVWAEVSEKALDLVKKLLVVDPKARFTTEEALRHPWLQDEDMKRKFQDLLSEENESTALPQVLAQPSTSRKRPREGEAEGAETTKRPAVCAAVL
Chain of UniProt O14936 (whole entry, looked up): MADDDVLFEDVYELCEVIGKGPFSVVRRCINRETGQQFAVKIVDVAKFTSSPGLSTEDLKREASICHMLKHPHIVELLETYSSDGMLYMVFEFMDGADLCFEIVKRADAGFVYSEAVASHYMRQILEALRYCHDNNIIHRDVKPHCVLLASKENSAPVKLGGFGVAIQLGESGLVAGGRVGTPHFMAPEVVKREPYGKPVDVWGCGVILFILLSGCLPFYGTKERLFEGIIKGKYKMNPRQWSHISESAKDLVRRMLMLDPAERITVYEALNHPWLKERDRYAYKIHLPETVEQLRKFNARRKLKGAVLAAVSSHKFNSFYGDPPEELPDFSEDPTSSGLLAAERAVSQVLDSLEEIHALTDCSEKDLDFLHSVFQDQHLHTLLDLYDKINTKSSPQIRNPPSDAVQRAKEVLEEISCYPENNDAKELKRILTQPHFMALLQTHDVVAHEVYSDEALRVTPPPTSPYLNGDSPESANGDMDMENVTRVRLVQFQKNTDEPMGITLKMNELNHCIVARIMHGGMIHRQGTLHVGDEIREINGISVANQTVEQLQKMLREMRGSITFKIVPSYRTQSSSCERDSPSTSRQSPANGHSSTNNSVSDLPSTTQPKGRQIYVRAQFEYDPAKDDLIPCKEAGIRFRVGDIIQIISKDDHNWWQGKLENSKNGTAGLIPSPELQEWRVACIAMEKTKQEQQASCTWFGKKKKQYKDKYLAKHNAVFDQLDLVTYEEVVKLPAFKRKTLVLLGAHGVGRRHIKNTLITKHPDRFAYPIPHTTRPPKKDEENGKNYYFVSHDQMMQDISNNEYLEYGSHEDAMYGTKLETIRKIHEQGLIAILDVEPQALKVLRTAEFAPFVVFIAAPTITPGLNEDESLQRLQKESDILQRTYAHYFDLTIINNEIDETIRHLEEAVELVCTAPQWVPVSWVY
Chain of UniProt Q8IY84 (whole entry, looked up): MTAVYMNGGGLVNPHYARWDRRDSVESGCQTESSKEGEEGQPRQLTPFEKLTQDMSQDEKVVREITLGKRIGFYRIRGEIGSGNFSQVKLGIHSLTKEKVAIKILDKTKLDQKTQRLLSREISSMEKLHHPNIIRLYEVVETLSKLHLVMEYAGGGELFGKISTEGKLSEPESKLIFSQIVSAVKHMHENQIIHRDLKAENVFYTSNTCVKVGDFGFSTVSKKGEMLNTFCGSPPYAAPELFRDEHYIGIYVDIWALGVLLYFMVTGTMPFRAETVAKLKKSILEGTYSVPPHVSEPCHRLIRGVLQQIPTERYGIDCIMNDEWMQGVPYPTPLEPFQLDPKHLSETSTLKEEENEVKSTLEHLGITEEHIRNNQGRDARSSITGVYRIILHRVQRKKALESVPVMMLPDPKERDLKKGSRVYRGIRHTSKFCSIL
Chain of UniProt Q9UHD2 (whole entry, looked up): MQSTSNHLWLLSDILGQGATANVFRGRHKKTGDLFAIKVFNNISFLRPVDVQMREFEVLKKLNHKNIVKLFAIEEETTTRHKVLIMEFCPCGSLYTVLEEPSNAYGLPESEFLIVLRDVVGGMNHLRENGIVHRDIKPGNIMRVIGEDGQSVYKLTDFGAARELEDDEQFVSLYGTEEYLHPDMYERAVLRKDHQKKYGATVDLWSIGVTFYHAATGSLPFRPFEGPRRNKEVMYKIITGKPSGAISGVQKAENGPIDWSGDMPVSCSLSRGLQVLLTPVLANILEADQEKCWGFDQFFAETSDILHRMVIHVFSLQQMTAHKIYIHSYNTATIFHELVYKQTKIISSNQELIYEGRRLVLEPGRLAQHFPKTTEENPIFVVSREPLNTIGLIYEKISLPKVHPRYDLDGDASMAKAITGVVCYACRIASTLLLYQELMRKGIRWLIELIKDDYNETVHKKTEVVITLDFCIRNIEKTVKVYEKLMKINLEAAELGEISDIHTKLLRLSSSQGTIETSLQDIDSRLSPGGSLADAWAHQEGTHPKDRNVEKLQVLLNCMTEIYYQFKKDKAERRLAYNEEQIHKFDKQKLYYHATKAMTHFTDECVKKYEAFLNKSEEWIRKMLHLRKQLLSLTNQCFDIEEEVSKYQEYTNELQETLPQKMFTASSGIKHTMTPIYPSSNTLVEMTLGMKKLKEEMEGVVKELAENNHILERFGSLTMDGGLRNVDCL

Set 1 — species: mouse; matrix: microsomes or S9; tested at: 2 µM; time: 0.5 h; measurement: remaining compound
COc1ccc(OC)c2c1s/c(=N\C(=O)C(C)C)n2C: 0%
O=C1CC(C(=O)Nc2ccccc2-c2ccccc2)c2ccccc21 (centres unmarked): 3.15%
CCC1(c2ccc(NC(=O)c3c(OC)cccc3OC)cc2)CCC(=O)N=C1O (centres unmarked): 41%
c1ccc2c(c1)CC[C@H](Cn1ccnc1-c1cc3n(n1)CCCNC3)O2: 23.6%
Cc1cc(C)nc(Nc2n[nH]c(COc3ccccc3)n2)n1: 3.95%

Set 2 — Structure (SMILES): COc1ccc(Cl)cc1NC(=O)Nc1cc(C)nc2ccccc12; effect on: enzyme activity; mode: inhibitor; tested at: 0.5 µM; baseline: control; measurement: remaining activity
Death-associated protein kinase 2 (DAPK2, Homo sapiens, UniProt Q9UIK4): 99.1%
TGF-beta receptor type-1 (TGFBR1, Homo sapiens, UniProt P36897): 99.1%
cAMP-dependent protein kinase catalytic subunit alpha (PRKACA, Homo sapiens, UniProt P17612): 101%
Mitogen-activated protein kinase kinase kinase 3 (MAP3K3, Homo sapiens, UniProt Q99759): 111%
Calcium/calmodulin-dependent protein kinase kinase 2 (CAMKK2, Homo sapiens, UniProt Q96RR4): 93.2%
STE20/SPS1-related proline-alanine-rich protein kinase (STK39, Homo sapiens, UniProt Q9UEW8): 98.5%
Serine/threonine-protein kinase Chk2 (CHEK2, Homo sapiens, UniProt O96017): 101%
Cyclin-dependent kinase 5, with p25 (CDK5, Homo sapiens, UniProt Q00535): 105%
Mitogen-activated protein kinase 9 (MAPK9, Homo sapiens, UniProt P45984): 105%
Tyrosine-protein kinase Lyn, isoform B (LYN, Homo sapiens, UniProt P07948): 99.2%
cGMP-dependent protein kinase 1, isoform beta (PRKG1, Homo sapiens, UniProt Q13976): 108%
Protein kinase C alpha type (PRKCA, Homo sapiens, UniProt P17252): 132%
Protein kinase C beta type, isoform beta-I (PRKCB, Homo sapiens, UniProt P05771): 105%

Set 3 — effect on: cell-free assay; method: competition with immobilised ligand; tested at: 1 µM; measurement: remaining binding
Structure (SMILES): C[C@H](c1ccc(F)cc1)N(Cc1cccc(C(=O)O)c1)C(=O)c1cnc2ccccc2c1
Protein kinase C eta type (PRKCH, Homo sapiens, UniProt P24723): 75%
Hormonally up-regulated neu tumor-associated kinase (HUNK, Homo sapiens, UniProt P57058): 100%
Ephrin type-A receptor 6 (EPHA6, Homo sapiens, UniProt Q9UF33): 100%
Phosphatidylinositol 4,5-bisphosphate 3-kinase catalytic subunit alpha isoform (PIK3CA, Homo sapiens, UniProt P42336, C420R): 100%
Cyclin-dependent kinase 3 (CDK3, Homo sapiens, UniProt Q00526): 98%
Serine/threonine-protein kinase TBK1 (TBK1, Homo sapiens, UniProt Q9UHD2): 91%
TGF-beta receptor type-2 (TGFBR2, Homo sapiens, UniProt P37173): 100%
Serine/threonine-protein kinase mTOR (MTOR, Homo sapiens, UniProt P42345): 93%
Tyrosine-protein kinase JAK2, JH1 (JAK2, Homo sapiens, UniProt O60674): 88%
Serine/threonine-protein kinase NIM1 (NIM1K, Homo sapiens, UniProt Q8IY84): 79%
Ribosomal protein S6 kinase alpha-1, N-terminal kinase domain (RPS6KA1, Homo sapiens, UniProt Q15418): 100%
Peripheral plasma membrane protein CASK (CASK, Homo sapiens, UniProt O14936): 86%
Activin receptor type-1 (ACVR1, Homo sapiens, UniProt Q04771): 100%

Other studies, line by line
CN1CCC[C@H]1COc1nc2c(c(N3CCN(S(C)(=O)=O)[C@@H](CC#N)C3)n1)CCN(c1cccc3cccc(Cl)c13)C2 — IC50 (GTPase KRas (KRAS, Homo sapiens, UniProt P01116, G13D); target engagement in cells, BRET): 820 nM

Excerpt of the above (set 2):
STE20/SPS1-related proline-alanine-rich protein kinase (STK39, Homo sapiens, UniProt Q9UEW8): 98.5%
Cyclin-dependent kinase 5, with p25 (CDK5, Homo sapiens, UniProt Q00535): 105%
Mitogen-activated protein kinase 9 (MAPK9, Homo sapiens, UniProt P45984): 105%
Serine/threonine-protein kinase Chk2 (CHEK2, Homo sapiens, UniProt O96017): 101%
